Measurements gathered from unrelated publications.
A part holds a random share of what one study measured.

Series 1
Target: Histone acetyltransferase KAT6A, winged helix 2, GST fusion (KAT6A, Homo sapiens, UniProt Q92794, residues 85-181)
Technique: protein binding microarray
Form: double-stranded DNA, one strand shown
Sample: in vitro
Concentration: not given
Notes: 8-mer, flanks averaged, mean of 2 arrays, mostly near background
Baseline: not given
Reading: higher = stronger binding
Construct (chain): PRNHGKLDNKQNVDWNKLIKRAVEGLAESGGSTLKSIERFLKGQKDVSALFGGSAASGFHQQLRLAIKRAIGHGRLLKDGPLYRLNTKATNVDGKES
Strand	E-score
ATTCGACA	-0.0295
ATTGAAGC	0.0674
CCAAAAAA	0.231
ATAGAAGA	-0.18
ACTGGGCT	-0.157
CCACTTCG	0.141
CTGCCCTA	0.143
CGCCACGC	0.137
CAGATCGG	0.0154
GAGGGGCA	0.122
AGTGTGGG	-0.00741
ATGTCTAC	-0.133
CAACGAGA	0.0713
AAGCTTCG	-0.0488
AAAAAGCC	0.0526
ACTATTGC	-0.0982
AAGGGGAG	-0.0915

Series 2
Target: Runt-related transcription factor 3, Runt domain (RUNX3, Homo sapiens, UniProt Q13761, residues 53-186)
Sequence of UniProt Q13761 (53-186, looked up): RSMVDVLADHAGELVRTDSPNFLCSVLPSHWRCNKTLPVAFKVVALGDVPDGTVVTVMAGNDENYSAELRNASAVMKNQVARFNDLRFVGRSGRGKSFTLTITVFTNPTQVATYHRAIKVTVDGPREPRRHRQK
Technique: protein-binding microarray
Form: hairpin DNA
Sample: in vitro
Concentration: not given
Notes: whole hairpin DNA, median over replicate spots
Baseline: not given
Reading: higher = stronger binding
Strand	median fluorescence [a.u.]
GAGGCCTGTTGTGCGTGGCCTCCTGGCCACGCACAACAGGCCTCACACTC (5mC at 30)	4570
GAGGCCCGTCGCGGTTGGCCTCCTGGCCAACCGCGACGGGCCTCACACTC	6080
GAGGCCTGTCGCGGTTTGCCTCCTGGCAAACCGCGACAGGCCTCACACTC	6380
GAGGCCTCGTGCGGTTGGCCTCCTGGCCAACCGCACGAGGCCTCACACTC (5mC at 8)	6210
GAGGCCTGTCGTGGTTGGCCTCCTGGCCAACCACGACAGGCCTCACACTC (5mC at 34)	5300
GAGGCCAGTCGCGGTTGGCCTCCTGGCCAACCGCGACTGGCCTCACACTC	5770
GAGGCCCAACGGCAACAGCCTCCTGGCTGTTGCCGTTGGGCCTCACACTC (5mC at 10 34)	4780
GAGGCCTGTCGCCGTTGGCCTCCTGGCCAACGGCGACAGGCCTCACACTC (5mC at 13 31)	4940
GAGGCCCAACCGCCGCAGCCTCCTGGCTGCGGCGGTTGGGCCTCACACTC (5mC at 14)	5810
CTCAGTTCTGTGCGCTGGACTCCTGTCCAGCGCACAGAACTGAGACACTC	4110
GAGGCCCAACTGCAACAGCCTCCTGGCTGTTGCAGTTGGGCCTCACACTC	4690
CTCAGTTCTGTTGGCTGGACTCCTGTCCAGCCAACAGAACTGAGACACTC	4050
GAGGCCCAACCGCAACGGCCTCCTGGCCGTTGCGGTTGGGCCTCACACTC (5mC at 16)	10400
GAGGCCCAACCGCAACGGCCTCCTGGCCGTTGCGGTTGGGCCTCACACTC (5mC at 28)	8730
GAGGCCTGTTGCCGTTGGCCTCCTGGCCAACGGCAACAGGCCTCACACTC	4790
GAGGCCTGTTGTTGTTGGCCTCCTGGCCAACAACAACAGGCCTCACACTC	4100
GAGGCCCAACCGCCACAGCCTCCTGGCTGTGGCGGTTGGGCCTCACACTC (5mC at 14)	6250
CTCAGTTCTGTGGCGTGGACTCCTGTCCACGCCACAGAACTGAGACACTC (5mC at 30)	3870
GAGGCCTGTTGTGGTTGGCCTCCTGGCCAACCACAACAGGCCTCACACTC (5mC at 34)	6230
GAGGCCCAACCGCAACAGCCTCCTGGCTGTTGCGGTTGGGCCTCACACTC (5mC at 7)	9310
GAGGCCTGTCTCGGTTGGCCTCCTGGCCAACCGAGACAGGCCTCACACTC	5020
GAGGCCTGTCGCGGTTGGCCTCCTGGCCAACCGCGACAGGCCTCACACTC (5mC at 10 12 32 34)	4840
CTCAGTTCTGTGGGCTCGACTCCTGTCGAGCCCACAGAACTGAGACACTC	4150

Series 3
Target: Hepatocyte nuclear factor 3-alpha (Foxa1, Mus musculus, UniProt P35582, residues 1-468, full length assumed)
Technique: EMSA with sequencing
Form: double-stranded DNA, one strand shown
Sample: in vitro
Concentration: 10 and 20 nM
Notes: whole designed probe, mean of two concentrations, ends assumed
Baseline: negative control set to 0
Reading: higher = stronger binding
Residues (chain): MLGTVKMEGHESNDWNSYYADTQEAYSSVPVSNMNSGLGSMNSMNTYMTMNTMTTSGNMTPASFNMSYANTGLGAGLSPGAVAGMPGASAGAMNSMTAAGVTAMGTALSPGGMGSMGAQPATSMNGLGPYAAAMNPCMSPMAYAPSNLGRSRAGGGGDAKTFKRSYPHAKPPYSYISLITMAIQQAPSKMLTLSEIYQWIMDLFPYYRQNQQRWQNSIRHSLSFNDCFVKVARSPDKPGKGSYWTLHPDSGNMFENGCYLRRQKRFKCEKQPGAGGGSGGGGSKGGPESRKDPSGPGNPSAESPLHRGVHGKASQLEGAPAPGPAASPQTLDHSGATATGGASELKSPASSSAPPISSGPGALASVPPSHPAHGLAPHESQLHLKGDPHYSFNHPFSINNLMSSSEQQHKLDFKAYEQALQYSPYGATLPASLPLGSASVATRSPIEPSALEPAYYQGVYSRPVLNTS
Strand	normalised bound fraction [ratio]
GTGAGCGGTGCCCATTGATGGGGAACTTAATCAAATCAGCTCAATCCATACGTGCACTTCTTAAAATATATGAATTGATCCTACGTGTTGTAAGCAAACACAGACACATCCAGCTCCTTATTTACTTAGCCCTGATTTAAATAATGATGTGCTTTTTTGCTGACATCTTCTCACAATTCAGCTTTGTTTTTTTTCTTTTGTCCAAGAAATGTCTCTAGATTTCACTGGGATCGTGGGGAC	0.473
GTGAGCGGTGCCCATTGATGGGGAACATCTTCCCCCTCTTCCTTGCCCCACCAGCTCACCTACGGGGGTTATTTGCAGATAGGAAAATAAATAAAGCCGGCATTCGTTAACCCTCTTCTGGCGCAAACTGCTGTTTGCTCTGGATCTAACATGGTCCTTTGGCGAGGCGTGGCTCCGGGAGAGCAAAGCACCGTGTCAGGGCCATGATCCGGGCTCGCCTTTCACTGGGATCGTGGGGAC	0.343
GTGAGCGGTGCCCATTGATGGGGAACATCTTCCCCCTCTTCCTTGCCCCACCAGCTCACCTTCCCGGGTATATTGGAGATAGGAAATTAATATAAGCCGGCATTCGTTAACCCTCTTCTGGCGCAAACTGCCAGAGCAAACAGATGAATCATGGTCCTTTGGCGACGCCAGGCTCCGGGAGAGCAAAGCACCGTGTCAGGGCCATGATCCGGGGTGGCCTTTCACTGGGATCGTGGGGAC	0.155
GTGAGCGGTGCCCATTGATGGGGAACTATCTTTCCTCTGACTGACAGCCTGAAGGATCGTCTATGTGATTTTTGTGTTGCTGAGGTGAAAACAATCTTTATTTGGATTGAATAGCAGAGTAAACAGGAATGAAAAAGAGACACAAAAGTTTACAGTACAGATGGTTTTCCAATTCTTTTACAAAAATTGTCTGTCTTATCAATTAAAGGTGCATTTACCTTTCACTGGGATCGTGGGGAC	0.203
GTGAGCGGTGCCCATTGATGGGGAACATATTCAGCAGAGTGGTCCTAGGTAGAACATTCTGTGTCAAAATATCAAAAGGCATTGACAAGAGAAATCGACAGAGAATTAGGTTAGCAGAGTAAACAGGTATTCTGTAACCTTCTCAAGTGCTGTGCCTGCTTAGGGAAATACTATTCTTATAAAGTCTTATTCTTCCGCATAATGAATAGTCATTTCCACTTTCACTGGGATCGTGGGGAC	0.0896
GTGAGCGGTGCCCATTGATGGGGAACGGACACAGCCAGAGGCCATGAGTGCTCAGGAGTGCCATAAACTGTGATTTTGAGACTGATAAGGCCAGGCTAAATAGCCTGGGTGTGTCTTGTTGTTTGCCTTTTTATATTTGAGGCCTATAAAAAAATAGTGAGAAAATAGCAAGATGCCCAGGAGACAGGTGATCTGATTCAGCCAGGGGGTGGGAGGTGGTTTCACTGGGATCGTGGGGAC	0.0714
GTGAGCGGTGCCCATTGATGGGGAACTGGCTGGCATCAAGGACTTTGGCTCTGGGGGTGTTCCCAGTCAACAGTTAACTAAAGACCAGGCCACTGTGCCTAGACTGTTTGTGCATTTGTGCAAACAATATGGGTTCATGCTGAAGTCCTGCGTTCCTTCTGAGAGTCTGAAAAGTTTAGAACATGCCAGGCAGAGGGTGTGTACCTGACCAACCCCCAATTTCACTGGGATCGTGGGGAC	0.347
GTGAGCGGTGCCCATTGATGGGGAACTGAAATCTCTCTTTATAAGTCACTCATAAACATGACTGCAGTCATATGCCTCACAGTTACTGTACTTTAATCTGCACTTGCTTCCTCCTACGTATTTACTTAAAGAGTCACAGCTTGCTGGAAATGTATCCTTCCTACTGTTGCTCTGTGTGTCTCCAACGGGGGGATTGGATCCTTGTATGTTTTTTTAACCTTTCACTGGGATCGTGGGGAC	0.334

Series 4
Target: Ras GTPase-activating protein-binding protein 1, full length (G3BP1, Homo sapiens, UniProt Q13283)
Sequence of UniProt Q13283 (whole entry, looked up): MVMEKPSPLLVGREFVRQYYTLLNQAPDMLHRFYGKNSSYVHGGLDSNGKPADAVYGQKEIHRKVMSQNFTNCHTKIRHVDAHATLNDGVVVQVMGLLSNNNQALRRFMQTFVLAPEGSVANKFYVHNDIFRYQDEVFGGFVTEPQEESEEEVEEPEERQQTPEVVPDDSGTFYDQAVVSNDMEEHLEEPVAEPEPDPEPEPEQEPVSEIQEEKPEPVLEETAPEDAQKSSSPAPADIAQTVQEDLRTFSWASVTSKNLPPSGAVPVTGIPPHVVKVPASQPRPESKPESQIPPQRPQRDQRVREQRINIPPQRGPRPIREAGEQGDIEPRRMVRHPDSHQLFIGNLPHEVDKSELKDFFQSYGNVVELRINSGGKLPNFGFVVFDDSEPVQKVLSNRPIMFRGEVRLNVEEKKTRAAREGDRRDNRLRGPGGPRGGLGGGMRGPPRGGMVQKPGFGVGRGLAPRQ
Technique: RNA Bind-n-Seq
Form: RNA
Sample: in vitro
Concentration: 200 nM
Notes: whole 134-nt RNA, ends assumed
Added: 150 mM KCl
Baseline: input library
Reading: higher = stronger binding
Strand	log2 enrichment
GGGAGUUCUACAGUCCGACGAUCAUUUUUUGUAUCAAGUCCCUGAAUGGAAGUAUGACGUUGGGUCCCUCUGAAGUUUAAUUCUGAGUUCUCAUUAAAAGAAAUUUGCUUUCAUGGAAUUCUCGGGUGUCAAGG	-2.01
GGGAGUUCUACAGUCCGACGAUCUAACUUUAGAGGAGGAUCUGAUGGAUAUGGCAGUGGACGUGAAUUUGGGGAUGGCUAUAAUGGGUAUGGAGGAGGACCUGGAGGUGGCAAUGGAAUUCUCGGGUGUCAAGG	0.428
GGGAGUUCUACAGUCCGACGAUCGCAGGAAGUAAAAACAAAUGGAAAUGCUUCGGAUAGUGGCAGGGGUGGGGGUUGCUAAGGAAAGGGUGGGUUGGGAGUGGGUAAAGAGUUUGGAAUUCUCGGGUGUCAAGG	0.86
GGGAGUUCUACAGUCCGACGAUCUUAAGAAUUUGCUUAAAGAAGUGCGGAUCUAUGCACAGAAAUUUAUUGAUCGAGGAAAGGAUUUUAACUUGGAGUUGGCAAUUAAAACACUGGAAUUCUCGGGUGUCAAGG	0.211
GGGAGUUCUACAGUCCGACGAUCCCUCAAGUCCUGUGCUACACAUCGUAUGUACCGAAUCGGGGAGGGAGGAGGGAAAGUAUUAUGUUACGCCGUUCGGAUCUGCACUUCCAGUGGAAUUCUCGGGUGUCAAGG	1.27
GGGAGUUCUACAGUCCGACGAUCUCAAGUCCUGUGCUACACAUCGUAUGUACCGAAUCGGUUUGGGUUUGGUUUGGGAAAGUAUUAUGUUACGCCGUUCGGAUCUGCACUUCCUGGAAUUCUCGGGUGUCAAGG	-0.651
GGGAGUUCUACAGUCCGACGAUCGCAGGAAGUAAAAACAGAUGGAAAUGCUUCGGAUAGUGGCAGGGGUGGGGGUUGCUAAGGAAAGGGUGGGAUGGGAGUGGGUAAAGAGUUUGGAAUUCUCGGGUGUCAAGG	1.51
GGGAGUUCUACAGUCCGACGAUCCCUGUGCUACACAUCGUAUGUACCGAAUCGGGGAAAAAAAGGAAAAAAAGGAAAAAAAGGGAAAGUAUUAUGUUACGCCGUUCGGAUCUGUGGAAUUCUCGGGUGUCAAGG	-0.629
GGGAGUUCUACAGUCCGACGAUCCAAGUCCUGUGCUACACAUCGUAUGUACCGAAUCGGGAAAGGAAAGGGGAAAGGGGAAAGUAUUAUGUUACGCCGUUCGGAUCUGCACUUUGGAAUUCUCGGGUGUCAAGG	0.327
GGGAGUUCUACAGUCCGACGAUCGUCCUGUGCUACACAUCGUAUGUACCGAAUCGGGGAAAGGGGUGGGGAAAAAAAGGGGAAAGUAUUAUGUUACGCCGUUCGGAUCUGCACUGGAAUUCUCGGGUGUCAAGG	0.355
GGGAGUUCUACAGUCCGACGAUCCACAGACAACAUGCACCCACACAGACACAGAGGGAAGGGGUUGGGAUGGGGACAGGGUGCACAGCAGGGCGGGGUAGGACCCCAGCCCCUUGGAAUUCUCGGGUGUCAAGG	1.86
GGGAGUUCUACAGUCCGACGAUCGCAGGAAGUAAAAACAAAUGGAAAUGCUUCGGAUAGUGGCAGGGGUGGGGGUUGCUAAGGAAAGGGUGGGAAAAGAGUGGGUAAAGAGUUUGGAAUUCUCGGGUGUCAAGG	0.813
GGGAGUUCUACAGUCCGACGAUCCACAGACAACACGCACCCACACAGACACAGAGGGAAGGGGUUGGGAUGGGGACAGGGUGCACAGCAGGGCGGGGUAGGAACCCAGCCCCUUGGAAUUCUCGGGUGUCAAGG	1.69
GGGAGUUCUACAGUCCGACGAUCAAGUCCUGUGCUACACAUCGUAUGUACCGAAUCGGGGUUUUGGUUUUGGGUUUUGGAAAGUAUUAUGUUACGCCGUUCGGAUCUGCACUUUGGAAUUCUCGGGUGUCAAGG	-1.02
